Experimental data gathered from unrelated publications.
Protocols differ between the studies behind these lines. Values joined by “and” are separate records of one study, mostly repeats; a detail may differ. ± gives the spread as reported.

Structure (SMILES)	cell line	test	test system	setting	scale	quantity	result
CC[C@H](C)[C@H](NC(=O)[C@H](CO)NC(=O)[C@H](CC(C)C)NC(=O)[C@H](Cc1ccccc1)NC(=O)CN)C(=O)N[C@@H](CC(C)C)C(=O)N[C@@H](CCCCN)C(=O)N[C@@H](CCCCN)C(=O)N[C@H](C(=O)N[C@@H](CC(C)C)C(=O)N[C@@H](CCCCN)C(=O)N[C@H](C(=O)N[C@@H](CCSC)C(=O)N[C@@H](C)C(=O)N[C@@H](Cc1c[nH]cn1)C(=O)N[C@@H](CCSC)C(=O)N[C@@H](CCCCN)C(=O)N[C@@H](CS)C(N)=O)C(C)C)C(C)C	human red blood cells	–	–	pH 5.5	baseline: Triton X-100	EC50	12 µM
CC(C)=CCC[C@](C)(O)[C@H]1CC[C@]2(C)[C@@H]1[C@H](O)C[C@@H]1[C@@]3(C)CC[C@H](O)C(C)(C)[C@@H]3[C@@H](O[C@@H]3O[C@H](CO)[C@@H](O)[C@H](O)[C@H]3O)C[C@]12C	HepG2	cell viability, CCK-8	–	50 µM	higher = more viable cells	optical density	0.315 a.u. and 0.336 a.u. and 0.368 a.u. and 0.358 a.u. and 0.308 a.u. and 0.312 a.u.
CC(C)=CCC[C@]1(C)C=Cc2c(O)c3c(c(CC=C(C)C)c2O1)O[C@]12C(=C[C@@H]4C[C@H]1C(C)(C)O[C@@]2(C/C=C(/C)C(=O)O)C4=O)C3=O	human iPSC-derived cardiomyocytes	MyBP-C/MYH ratio, plate-normalised SD score	–	concentration not given, primary screen	direction not given	activity score	9.3
CC(C)C[C@H](NC(=O)[C@H](CCc1ccccc1)NC(=O)CN1CCOCC1)C(=O)N[C@@H](Cc1ccccc1)C(=O)N[C@@H](CC(C)C)C(=O)[C@@]1(C)CO1	patient tumour conditionally reprogrammed cells	RNA-seq, refers to: IL36B mRNA	human	concentration not given	baseline: DMSO	fold change	-3850
CC(c1ccccc1)(c1ccc(O)cc1)c1ccc(O)cc1	HepG2 spheroids	planimetry	–	10 µM, 0 to 24 h	baseline: mean area of 72 h spheroids	spheroid area increase	128%
O=C1Nc2ccc3ncsc3c2/C1=C/c1cnc[nH]1	HeLa expressing Ub(G76V)-GFP	Ub(G76V)-GFP degradation, cycloheximide chase	–	12 µM	–	inhibition	13%
CC(C)C[C@H](NC(=O)[C@H](C)NC(=O)[C@H](Cc1c[nH]cn1)NC(=O)[C@H](C)NC(=O)[C@H](CC(C)C)NC(=O)[C@H](Cc1c[nH]cn1)NC(=O)[C@H](CC(C)C)NC(=O)[C@H](Cc1c[nH]c2ccccc12)NC(=O)[C@H](CC(C)C)NC(=O)[C@H](CC(C)C)NC(=O)[C@H](C)NC(=O)[C@H](CC(C)C)NC(=O)[C@H](CC(C)C)NC(=O)[C@H](Cc1c[nH]cn1)NC(=O)[C@H](CC(C)C)NC(=O)[C@H](C)NC(=O)[C@H](Cc1c[nH]cn1)NC(=O)[C@H](C)NC(=O)[C@H](CC(C)C)NC(=O)[C@H](CCCCN)NC(=O)[C@@H](N)CCCCN)C(=O)N[C@@H](CCCCN)C(=O)N[C@@H](CCCCN)C(=O)N[C@@H](C)C(=O)N[C@@H](CS)C(N)=O	human red blood cells	–	–	pH 7.4	baseline: Triton X-100	EC50	> 100 µM
c1ccc([C@@H]2C[C@H]2NC2CCNCC2)cc1	HBL-1	–	–	0.1 µM, 120 h	–	viability	124%
Oc1ccc(C(c2ccc(O)cc2)(C(F)(F)F)C(F)(F)F)cc1	HepG2 spheroids	Hoechst flow cytometry	–	10 µM, 24 h	–	G2 phase cells	21.7 ± 5.2%
CC[C@H](C)[C@H](NC(=O)CN)C(=O)NCC(=O)N[C@@H](C)C(=O)N[C@H](C(=O)N[C@@H](CC(C)C)C(=O)N[C@@H](CCCCN)C(=O)N[C@H](C(=O)N[C@@H](CC(C)C)C(=O)N[C@@H](C)C(=O)N[C@H](C(=O)NCC(=O)N[C@@H](CC(C)C)C(=O)N1CCC[C@H]1C(=O)N[C@H](C(=O)N[C@@H](CC(C)C)C(=O)N[C@H](C(=O)N[C@@H](CO)C(=O)N[C@@H](Cc1c[nH]c2ccccc12)C(=O)N[C@H](C(=O)N[C@@H](CS)C(N)=O)[C@@H](C)CC)[C@@H](C)CC)[C@@H](C)O)[C@@H](C)O)C(C)C)[C@@H](C)CC	human red blood cells	–	–	pH 7.4	baseline: Triton X-100	EC50	30 µM
Cn1nccc1Nc1nccc(-c2cc3c(s2)C(C)(C)N(CCN2CCOCC2)C3=O)n1	HCT116	IncuCyte	–	concentration not given, 16 (unit not given)	–	PI-positive cells	5 count and 4.5 count and 4.25 count
COP(=O)(OC)OC=C(Cl)Cl	human iPSC-derived cardiomyocytes	MyBP-C/MYH ratio, plate-normalised SD score	–	concentration not given, primary screen	direction not given	activity score	3.3
Nc1ncnc2c1ncn2[C@@H]1O[C@@H]2COP(=O)(O)O[C@H]3[C@@H](O)[C@H](n4cnc5c(=O)[nH]cnc54)O[C@@H]3COP(=O)(O)O[C@H]2[C@H]1O	HFF-1	RNA sequencing Reactome analysis, refers to: Reactome R-HSA-9701193 defective HRR (PALB2 loss)	–	together with: West Nile virus infection	baseline: West Nile virus infected cells, upregulated pathway	pathway fold enrichment	7.67
CCCCCCCCCCCCCC(=O)O[C@@H]1[C@@H](C)[C@@]2(O)[C@@H](C=C(CO)C[C@]3(O)C(=O)C(C)=C[C@@H]23)[C@@H]2C(C)(C)[C@]12OC(C)=O	K562	flow cytometry	–	concentration not given	baseline: cells	sub-G0 cells	7.01% and 8.32% and 10.8%
O=c1c(O)c(-c2ccc(O)c(O)c2)oc2cc(O)cc(O)c12	induced SH-SY5Y Aβ-GFP cells	–	–	5 µM	–	neurite branch number	1.8 to 2.1
COc1cc(CCC[P+](c2ccccc2)(c2ccccc2)c2ccccc2)c(OC)c2c1OCO2.[I-]	U-251	SRB	–	–	–	LC50	> -4 log M
Cc1ncsc1-c1ccc(CNC(=O)[C@@H]2C[C@@H](O)CN2C(=O)[C@@H](NC(=O)C2(F)CC2)C(C)(C)C)c(OCCOc2ccc(CN3CCN(c4cc(-c5ccccc5O)nnc4N)CC3)cc2)c1	H1975 SMARCA4 wild type	ATAC-seq	–	1 µM, 96 h	–	sites with decreased accessibility	43.6%
O=c1c2ccccc2[se]n1-c1ccccc1	human iPSC-derived cardiomyocytes	MyBP-C/MYH ratio, plate-normalised SD score	–	concentration not given, primary screen	direction not given	activity score	5
CC[C@H](C)[C@H](NC(=O)[C@@H](N)CCCNC(=N)N)C(=O)N[C@H](C(=O)N1CCC[C@H]1C(=O)N[C@@H](C)C(N)=O)C(C)C	RAW264.7	cell-based ELISA	–	concentration not given, 60 min, 37 °C	baseline: vehicle	p38 phosphorylation increase	~50%

Structure (SMILES)	cell line	test	test system	setting	scale	quantity	result
CCN(CC)c1ccc(C=NNC(=O)CSc2nc3ccccc3c(=O)n2Cc2ccc(S(N)(=O)=O)cc2)c(O)c1	UO-31	NCI five-dose screen	–	–	–	CC50	> 100 µM
CN1CCN(C2(CNC3CCN(c4cccc(-c5cc6cc(F)ccc6[nH]5)c4)CC3)CCC2)CC1	U-251	–	–	–	–	GI50	1.72 µM
Cn1cncc1C1=CN(c2ncnc3[nH]cnc23)CCS1	U-251	–	–	CNS cancer	–	CC50	> 200 µM
O=C1N(Cc2ccccc2Cl)c2ccccc2C12NN=C(c1ccccc1)S2 (centres unmarked)	MDA-MB-468	gene expression array, refers to: WDR75 mRNA	–	10 µM, 12 h	baseline: untreated, down	fold change	1.76
CN1CCN(S(=O)(=O)c2cc([N+](=O)[O-])ccc2N(CCOS(C)(=O)=O)CCOS(C)(=O)=O)CC1	sample DB T-ALL PDX cells	cell viability	ex vivo	48 h, together with: AKR1C3 inhibitor 1 µM, 1 h pretreatment	–	IC50	3.63 µM
CC(C)C[C@@H]1NC(=O)[C@@H](NC(=O)OCc2ccccc2)Cc2cn(nn2)CCCNC(=O)CC[C@@H](C=O)NC1=O	HG23 norovirus replicon cells	viral replication, qRT-PCR	–	48 h	–	EC50	81.5 µM
Oc1ccc(C2(c3ccc(O)cc3)c3ccccc3-c3ccccc32)cc1	HepG2 spheroids	MTS	–	160 µM, 24 h	baseline: solvent control	metabolic activity decrease	~38%
Nc1ncc(-c2nc(N3CCOCC3)nc(N3CCOCC3)n2)c(C(F)F)n1	U-2 OS	cell growth	–	72 h	–	GI50	0.203 µM
Cc1cnc2ccc3c(nc(N)n3C)c2n1	BALB/c 3T3	colony formation	–	0.1 µM	–	plating efficiency	47%
CN(C)NC(=O)CCC(=O)O	HBL-1	–	–	0.1 µM, 120 h	–	viability	120%
Cc1ccc(S(=O)(=O)Oc2ccc(NC(=O)c3cnccn3)cc2)cc1	P2X7R-transfected MCF7	propidium iodide flow cytometry	–	5 µM, 18 h, together with: Bz-ATP	baseline: control	dead cells	19%
Cn1cc(C2=C(c3cn(C4CCN(Cc5ccccn5)CC4)c4ccccc34)C(=O)NC2=O)c2ccccc21	iCell Cardiomyocytes (hiPSC-derived)	xCELLigence Cardio impedance	–	concentration not given, 2 h	baseline: control	beat rate	59.2%
COc1c(C)c2c(c(O)c1C/C=C(\C)CCC(=O)O)C(=O)OC2	colon cancer cell lines	cell proliferation	–	average over lines	–	IC50	0.589 µM
COc1ccc2c(c1)[nH]c1c(C)nccc12	DU-145	bisulfite pyrosequencing, refers to: RASSF1A promoter CpG site 7	–	10 µM, 16 h	–	DNA methylation	86.8%
COc1c(CCC[P+](c2ccccc2)(c2ccccc2)c2ccccc2)cc2c(c1OC)OCO2.[I-]	LOX IMVI	SRB	–	–	–	Log10LC50	-4.35 log M
C[C@@H]1O[C@@H](O[C@H]2C[C@@H](O)[C@]3(CO)[C@H]4[C@H](O)C[C@]5(C)[C@@H](C6=CC(=O)OC6)CC[C@]5(O)[C@@H]4CC[C@]3(O)C2)[C@H](O)[C@H](O)[C@H]1O	human iPSC-derived cardiomyocytes	MyBP-C/MYH ratio, plate-normalised SD score	–	concentration not given, primary screen	direction not given	activity score	13.3
C/C=C(/C)C(=O)O[C@H]1C(C)=C2[C@H]([C@@H]1OC(=O)CCCCCCC)[C@@](C)(OC(C)=O)C[C@H](OC(=O)CCC)[C@@]1(O)[C@H]2OC(=O)[C@@]1(C)O	HEK293T	RNA-seq, refers to: DNAJB1 mRNA	–	10 µM, 6 h	baseline: vehicle	log2 fold change	-1.25
CC(C)N1CCC(NC2CCN(c3cccc(-c4cc5cc(F)ccc5[nH]4)c3)CC2)CC1	UO-31	–	–	–	–	CC50	6.18 µM
CCCc1cc2cc(-n3nc(C)c4c3CC(C)(C)CC4=O)cc(N[C@H]3CC[C@H](O)CC3)c2c(=O)[nH]1	UMUC3	Western blot, refers to: survivin	–	concentration not given, 24 h	–	protein level	no effect

A few entries again:
Structure (SMILES)	cell line	test	test system	setting	scale	quantity	result
c1ccc([C@@H]2C[C@H]2NC2CCNCC2)cc1	HBL-1	–	–	0.1 µM, 120 h	–	viability	124%
Oc1ccc(C(c2ccc(O)cc2)(C(F)(F)F)C(F)(F)F)cc1	HepG2 spheroids	Hoechst flow cytometry	–	10 µM, 24 h	–	G2 phase cells	21.7 ± 5.2%
CC[C@H](C)[C@H](NC(=O)CN)C(=O)NCC(=O)N[C@@H](C)C(=O)N[C@H](C(=O)N[C@@H](CC(C)C)C(=O)N[C@@H](CCCCN)C(=O)N[C@H](C(=O)N[C@@H](CC(C)C)C(=O)N[C@@H](C)C(=O)N[C@H](C(=O)NCC(=O)N[C@@H](CC(C)C)C(=O)N1CCC[C@H]1C(=O)N[C@H](C(=O)N[C@@H](CC(C)C)C(=O)N[C@H](C(=O)N[C@@H](CO)C(=O)N[C@@H](Cc1c[nH]c2ccccc12)C(=O)N[C@H](C(=O)N[C@@H](CS)C(N)=O)[C@@H](C)CC)[C@@H](C)CC)[C@@H](C)O)[C@@H](C)O)C(C)C)[C@@H](C)CC	human red blood cells	–	–	pH 7.4	baseline: Triton X-100	EC50	30 µM
Cn1nccc1Nc1nccc(-c2cc3c(s2)C(C)(C)N(CCN2CCOCC2)C3=O)n1	HCT116	IncuCyte	–	concentration not given, 16 (unit not given)	–	PI-positive cells	5 count and 4.5 count and 4.25 count
COP(=O)(OC)OC=C(Cl)Cl	human iPSC-derived cardiomyocytes	MyBP-C/MYH ratio, plate-normalised SD score	–	concentration not given, primary screen	direction not given	activity score	3.3
Nc1ncnc2c1ncn2[C@@H]1O[C@@H]2COP(=O)(O)O[C@H]3[C@@H](O)[C@H](n4cnc5c(=O)[nH]cnc54)O[C@@H]3COP(=O)(O)O[C@H]2[C@H]1O	HFF-1	RNA sequencing Reactome analysis, refers to: Reactome R-HSA-9701193 defective HRR (PALB2 loss)	–	together with: West Nile virus infection	baseline: West Nile virus infected cells, upregulated pathway	pathway fold enrichment	7.67
